Published values gathered from unrelated publications.
Lines come from different studies, so protocols differ. “And” joins repeats or separate records; there may be more than shown. Numbers after ± are the reported error.

SMILES	tested on	assay	system	setting	how to read	quantity	result
CN(C)C(=O)c1cccc(N2Cc3cn(Cc4ccccc4F)nc3C2)c1		metabolic stability	human, liver microsomes			half-life	0.95 h
O=C(Nc1cnccc1-c1ccc([18F])cc1)c1ccnc(NC(=O)C2CC2)c1		ex vivo gamma counting	GSK-3β transgenic mice, late-stage, liver	intravenous, 120 min, mean, P-gp inhibitor pretreatment, with: tariquidar 15 mg/kg iv		SUV	10.4
O=C(O)CCCCC1(N(CC(=O)O)CC(=O)O)CN(CC(=O)O)CCN(CC(=O)O)C1		pH-potentiometry, refers to: logK4H	0.15 M NaClO4	25 °C		protonation constant (log)	3.91
Cc1nc(N)nc2c1C(=O)N[C@@H](c1ccc(F)cc1-c1cccc(O[11CH3])n1)C2		ex vivo biodistribution	mouse, U87 subcutaneous xenograft, white blood cells	60 min, vehicle pretreatment baseline		SUV	5.8 ± 0.3
CN1CCC[C@]1(C)/C=C/S(=O)(=O)NC(=O)Nc1c2c(cc3c1C(O)CC3)CCC2 (some centres unmarked)			human, plasma	oral, 100 mg twice daily of parent drug, metabolite of dosed drug	reference: day 14 over day 1	AUC(0-24) accumulation ratio	1.3
CCC(C(=O)Nc1ccc(C(N)=O)c(F)c1)n1cc(OC)c(-c2cc(Cl)ccc2-n2cc(C(F)(F)F)nn2)cc1=O (centres unmarked)			healthy male humans	25 mg, ASD vs IR, fed		treatment-emergent adverse events	0%
CCCC[C@H](NC(=O)CNC(=O)CNC(=O)[C@H](CCCCNC(=O)[C@H](CC(=O)O)NC(=O)C(C)c1ccc(CC(C)C)cc1)NC(=O)CN1CCN(CC(=O)O)CCN(CC(=O)O)CCN(CC(=O)O)CC1)C(=O)N[C@H]1CC(=O)NCCCC[C@@H](C(N)=O)NC(=O)[C@H](Cc2c[nH]c3ccccc23)NC(=O)[C@H](CCCNC(=N)N)NC(=O)[C@@H](Cc2ccccc2)NC(=O)[C@H](Cc2c[nH]cn2)NC1=O (some centres unmarked) [lutetium-177 labelled]			C57 mice, tumour	intravenous, 0.037 MBq, 4 h	reference: muscle	tumour-to-tissue ratio	79.5
CC(C)(C)C(=O)Nc1ccc2[nH]c(CN3CCC(N(CCCN4CCOCC4)CC4OC(n5cnc6c(N)ncnc65)C(O)C4O)CC3)nc2c1 (centres unmarked)			male Sprague-Dawley rat, plasma	intravenous, 20 mg/kg, 10 h		concentration	26 ng/mL
C=C(NC(=O)c1csc(-c2nc3c(cc2O)-c2nc(cs2)C(=O)NC(C(C)O)C(=O)NC(=C(C)OC)c2nc(cs2)C(=O)NC2c4nc(cs4)C(=O)NC(COC(=O)c4c5c6c(cccc6n4O)COC(=O)C(OC4CC(C)(O)C(N(C)C)C(C)O4)C2OC5)c2nc-3cs2)n1)C(N)=O (centres unmarked)			Sprague-Dawley rat, female, plasma	intravenous infusion, 6 mg/kg, multiple doses, day 1		MRT(0-last)	1.25 h
CC(C)(C)NCC(SS(=O)(=O)O)c1ccccc1 (centres unmarked)			Swiss Webster mice, Schistosoma mansoni-infected	600 mg/kg single dose on day 7 post-infection, perfusion day 44 post-infection		body weight	30 g
C/C(N)=N/C(=N\S(=O)(=O)c1ccc(C(F)(F)F)cc1)N1C[C@H](c2ccccc2)C(c2ccc(Cl)cc2)=N1			Beagle dog, plasma	oral, 6 mg/kg		oral bioavailability	45.1%
CCOC(=O)[C@@](CC)(CCCSCCOCCOCCNC(=O)OC(C)(C)C)NC(=O)c1ccc(C2CC2)c(Cc2ccc(F)cc2)n1			aqueous buffer with DMSO			kinetic solubility	< 0.4 µg/mL
N#Cc1cc(NC(=O)C2c3ccccc3C(=O)N(CC(F)(F)F)C2c2ccc[n+]([O-])c2)ccc1F (centres unmarked)			human, plasma	concentration not given, single-dose cohorts, interim		maximum AUC	51.5 µg·h/mL
CN(O)C(=O)CCC(=O)NCCCN(CCCCN(CCCNC(=O)CCC(=O)N(C)O)C(=O)CCC(=O)N(C)O)C(=O)CCC(=O)N(C)O.[89Zr]		radio-TLC	aqueous buffer	3 d, pH 7.2, 37 °C, 89Zr-labelled complex, with: CaCl2 10-fold excess		intact complex	99.6 ± 0.8%
Cc1cc(-c2ccc(C(=O)[C@@H]3CCCC[C@H]3C(=O)Nc3cnn4c3C(=O)NCC4)cc2)[nH]n1			human, urine	oral, 200 mg, 0-120 h	reference: dose	cumulative radioactivity recovery	6.62% and 4.97% and 4.93% and 6.31% and 5.61% and 6.78%
C=Cc1cccc([B-]23OC(=O)C(c4ccccc4)=N[N+]2=Cc2ccc(N(CC)CC)cc2O3)c1 (centres unmarked)		UV/vis decay	aqueous buffer			hydrolysis activation energy	23.2 kcal/mol
Cc1nc(N)nc2c1C(=O)N[C@@H](c1ccc(F)cc1-c1cccc(OCC[18F])n1)C2		ex vivo biodistribution	C57BL/6 mouse, blood cells	intravenous, 1 MBq, 30 min, baseline, vehicle		SUV	0.72 ± 0.02
COc1ccc2c(c1)CCn1c[n+]3c(c1-2)-c1ccc(OC)cc1CC3			female NSG mice, blood	6 mg/kg, day 14, 5 days per week		mean corpuscular haemoglobin	16.1 ± 0.43 pg
Cc1ncsc1-c1ccc(C(C)NC(=O)C2CC(O)CN2C(=O)C(NC(=O)CCCCCCCCCCN2CCCC(Nc3ncc(Cl)c(Nc4ccccc4S(=O)(=O)C(C)C)n3)C2)C(C)(C)C)cc1 (centres unmarked)	22Rv1	RNA-seq, refers to: RFXAP mRNA		concentration not given	reference: DMSO	log2 fold change	-1.05

SMILES	tested on	assay	system	setting	how to read	quantity	result
CN1CCC[C@]1(C)/C=C/S(=O)(=O)NC(=O)Nc1c2c(cc3c1CCC3)CCC2		refers to: neutrophil count decreased, possibly related	human	oral, 12.5 mg twice daily, 14 days, multiple ascending dose		subjects with adverse event	16.7%
C[N+](C)(CCOCCOCCOCCNC(=S)Nc1ccc(C[C@H]2CN(CC(=O)[O-])CCN(CC(=O)[O-])CCN2CC(=O)[O-])cc1)C[c-]1cccc1.[64Cu+2].[Fe+2].c1cc[cH-]c1			human adult male, stomach wall	extrapolated from mouse biodistribution		absorbed dose	2.51 µSv/MBq
CN1CCC[C@]1(C)/C=C/S(=O)(=O)NC(=O)Nc1c2c(cc3c1CCC3O)CCC2 (some centres unmarked)			human, plasma	oral, 100 mg twice daily of parent drug, day 14, metabolite of dosed drug		AUC(0-24)	1520 µg·h/mL
CC(C)[C@H](NC(=O)[C@H](Cc1c[nH]c2ccccc12)NC(=O)[C@H](CCCNC(=N)N)NC(=O)[C@H](CCCNC(=N)N)NC(=O)[C@@H](NC(=O)[C@@H](NC(=O)[C@H](CCCNC(=N)N)NC(=O)[C@@H](NC(=O)[C@@H](NC(=O)[C@H](CCCNC(=N)N)NC(=O)[C@H](CCCNC(=N)N)NC(=O)[C@@H](NC(=O)[C@H](Cc1c[nH]c2ccccc12)NC(=O)[C@H](CCCNC(=N)N)NC(=O)[C@H](CCCNC(=N)N)NC(=O)[C@@H](NC(=O)[C@H](CCCNC(=N)N)NC(=O)[C@H](CCCNC(=N)N)NC(=O)[C@@H](NC(=O)[C@H](Cc1c[nH]c2ccccc12)NC(=O)[C@H](CCCNC(=N)N)NC(=O)[C@@H](N)CCCNC(=N)N)C(C)C)C(C)C)C(C)C)C(C)C)C(C)C)C(C)C)C(C)C)C(=O)N[C@@H](CCCNC(=N)N)C(=O)N[C@@H](CCCNC(=N)N)C(=O)O			CD1 mouse, plasma	intravenous, 15 mg/kg, 24 h, [14C]-labelled compound		anion gap	39.7 mEq/L
O=C([O-])CN1CCN(CC(=O)[O-])CCN(CC(CCCc2ccccc2[N+](=O)[O-])N(CC(=O)[O-])CC(=O)[O-])CC1.[177Lu+3] (centres unmarked)		HPLC	human serum	134 h, pH 7, 37 °C		intact radiolabelled complex	100%
Cc1cccc(-c2ccc3nc(N)nn3c2)c1			mouse liver microsomes	30 min		metabolic turnover	31%
COC1CN([C@H]2CC[C@H]([C@@]3(C)Oc4c(Cl)cc(C(=O)NCc5c(SC)cc(C)[nH]c5=O)c(C)c4O3)CC2)C1			female CB17 SCID mice, HT-1376 xenograft, plasma	75 mg/kg, day 1		Tmax	1.33 h
CCCCN1C(=O)c2cccc3c(NCCCCCCN4CCOCC4)ccc(c23)C1=O			dioxane			fluorescence lifetime	10.3 ns
CC(C(=O)O)n1nc(Cn2cc3cc(OCC[18F])c(Cl)cc3n2)c2ccccc2c1=O (racemic)			rat, kidney	30 min		tracer uptake	1.44 %ID/g
C#Cc1c(F)ccc2cc(O)cc(-c3ncc4c(N5CC6CCC(C5)N6C(=O)OC(C)OC(=O)c5ccc6ccccc6c5)nc(OC[C@@]56CCCN5C[C@H](F)C6)nc4c3F)c12 (some centres unmarked)		chemical stability	simulated intestinal fluid	1 µM, 30 min		compound remaining	86.1%
CCN(CC)c1ccc2c(c1)O[B-]1(c3ccccc3C)OC(=O)C(c3ccccc3)=N[N+]1=C2 (centres unmarked)		UV/vis decay	aqueous buffer			hydrolysis activation energy	22.6 kcal/mol
O=C(Nc1cnccc1-c1ccc([18F])nc1)c1ccnc(NC(=O)C2CC2)c1		ex vivo gamma counting	FVB/NJ mice, both sexes, eyes	intravenous, 120 min, with: tariquidar 15 mg/kg iv		mean SUV	0.091
O=C([O-])CN1CCN(CC(=O)[O-])CCN(CC(=O)NC[C@H]2CC[C@H](C(=O)N[C@H](Cc3cnc4ccccc4c3)C(=O)NCCCC[C@H](NC(=O)N[C@@H](CCC(=O)O)C(=O)O)C(=O)O)CC2)CCN(CC(=O)[O-])CC1.[64Cu+2]		ex vivo gamma counting	22Rv1 tumour-bearing mice, intestine	intravenous, 0.74 MBq, 6 h post-injection		tissue uptake	29.6 %ID/g
Cc1ccc(CN2C(=O)/C(=N\c3ccc(Cl)cc3Br)c3ccccc32)cc1			mouse, blood	150 mg/kg		haemoglobin	142 ± 4.82 g/L
CC(C)(O)c1ncc([S@](N)(=O)=NC(=O)Nc2c3c(cc4c2CCC4)CCC3)s1			healthy human	oral, 3 mg single dose, capsule formulation		gastrointestinal adverse events	17%
CCc1cnc(NC(=O)c2cc(S(=O)(=O)N3CCOCC3)ccc2N(C)C2CCCC2)s1			mouse, blood	10 mg/kg, 3 doses		Bands differential count	0%
C=CC(=O)Nc1cc(Nc2nccc(-c3cn(C)c4ccccc34)n2)c(OC)cc1N(C)CCNC			human plasma	5 h, storage stability, low QC sample		recovery	98.1%
CCCCCCCCCCCCCCCC(=O)N[C@@H](CCC(=O)NCCCC[C@H](NC(=O)[C@H](C)NC(=O)[C@H](C)NC(=O)[C@H](CCC(N)=O)NC(=O)CNC(=O)[C@H](CCC(=O)O)NC(=O)[C@H](CC(C)C)NC(=O)[C@H](Cc1ccc(O)cc1)NC(=O)[C@H](CO)NC(=O)[C@H](CO)NC(=O)[C@@H](NC(=O)[C@H](CC(=O)O)NC(=O)[C@H](CO)NC(=O)[C@@H](NC(=O)[C@H](Cc1ccccc1)NC(=O)[C@@H](NC(=O)CNC(=O)[C@H](CCC(=O)O)NC(=O)[C@H](C)NC(=O)[C@@H](N)Cc1cnc[nH]1)[C@@H](C)O)[C@@H](C)O)C(C)C)C(=O)N[C@@H](CCC(=O)O)C(=O)N[C@@H](Cc1ccccc1)C(=O)N[C@H](C(=O)N[C@@H](C)C(=O)N[C@@H](Cc1c[nH]c2ccccc12)C(=O)N[C@@H](CC(C)C)C(=O)N[C@H](C(=O)N[C@@H](CCCNC(=N)N)C(=O)NCC(=O)N[C@@H](CCCNC(=N)N)C(=O)NCC(=O)O)C(C)C)[C@@H](C)CC)C(=O)O			mouse DIO	dose not given, day 32 chronic		ALT	37.8 ± 3.7 U/L
CN1CCC[C@]1(C)/C=C/S(=O)(=O)NC(=O)Nc1c2c(cc3c1CCC3)CC=C2			human, plasma	oral, 50 mg twice daily of parent drug, day 14, metabolite of dosed drug		AUC(0-24)	496 µg·h/mL
